Results from different studies.
Lines come from different studies, so protocols differ. Numbers after ± are the reported error.

Structure (SMILES) | cell line | test | conditions | scale | viability
Nc1ccc(CCNc2c(NC3CCN(Cc4ccccc4)CC3)c(=O)c2=O)cc1 | SH-SY5Y | MTT | 12.5 µM, 24 h |  | 96.36 ± 0.14%
COC(=O)C1=CO[C@@H](OC(C)=O)[C@@H]2C(Cn3cc(CCCO)nn3)=CC[C@H]12 | SK-N-SH | MTT | 0.075 to 0.6 µM, 24 h, with: H2O2 |  | > 78%
O=c1c(NCCc2ccccc2)c(NC2CCN(Cc3ccccc3)CC2)c1=O | SH-SY5Y | MTT | 6.25 µM, 24 h |  | 121 ± 1.55%
COC(=O)C1=CO[C@@H](OC(C)=O)[C@@H]2C(Cn3cc(CCBr)nn3)=CC[C@H]12 | SK-N-SH | MTT | 0.075 to 0.6 µM, 24 h, with: H2O2 |  | > 78%
O=c1c(NCCc2ccc(Br)cc2)c(NC2CCN(Cc3ccccc3)CC2)c1=O | SH-SY5Y | MTT | 12.5 µM, 24 h |  | 91.45 ± 0.65%
COC(=O)C1=CO[C@@H](O)[C@@H]2C(Cn3cc(C4(O)CCCCC4)nn3)=CC[C@H]12 | SK-N-SH | MTT | 0.075 to 0.6 µM, 24 h, with: H2O2 |  | > 78%
COCCN1COc2c(cc3c4c(c(=O)oc3c2C)CCC4)C1 | SH-SY5Y |  | 100 µM, 24 h |  | 88.7 ± 0.77%
CC(C)C[C@H](NC(=O)[C@H](CCC(N)=O)NC(=O)CNC(=O)[C@H](Cc1c[nH]cn1)NC(=O)[C@H](CCC(N)=O)NC(=O)[C@H](CCCNC(=N)N)NC(=O)[C@H](CCCNC(=N)N)NC(=O)CNC(=O)CNC(=O)[C@H](CCCNC(=N)N)NC(=O)[C@H](CCCNC(=N)N)NC(=O)[C@H](CCCNC(=N)N)NC(=O)[C@H](CCC(N)=O)NC(=O)[C@H](CCCNC(=N)N)NC(=O)[C@H](CCCNC(=N)N)NC(=O)[C@H](CCCCN)NC(=O)[C@H](CCCCN)NC(=O)[C@H](CCCNC(=N)N)NC(=O)CN)C(=O)N[C@@H](Cc1c[nH]c2ccccc12)C(=O)N[C@@H](Cc1ccccc1)C(=O)N1CCC[C@H]1C(=O)N[C@@H](CCC(=O)O)C(=O)NCC(=O)N[C@@H](Cc1ccccc1)C(=O)O | human PBMC, normal | WST-8 | concentration not given, 24 h |  | no effect
COC(=O)C1=CO[C@@H](OC(C)=O)[C@@H]2C(Cn3cc(CCO)nn3)=CC[C@H]12 | SK-N-SH | MTT | 0.075 to 0.6 µM, 24 h, with: H2O2 |  | > 78%
O=C1CCCC2=C1C(c1c[nH]c3ccccc13)n1c(sc(=Cc3c[nH]c4ccccc34)c1=O)=N2 (stereo not drawn) | SH-SY5Y | cell growth or viability, MTT | 10 µM |  | 96.8%
CC[C@H](C)[C@H](NC(=O)[C@@H](NC(=O)[C@H](Cc1ccc(O)cc1)NC(=O)[C@@H]1CSSC[C@@H]2NC(=O)[C@@H]3CCCN3C(=O)[C@H](CC(N)=O)NC(=O)[C@H](Cc3ccccc3)NC(=O)[C@H](CCC(=O)O)NC(=O)[C@H](C(C)C)NC(=O)[C@H](CC(=O)O)NC(=O)[C@@H]3CSSC[C@H](NC(=O)[C@H]([C@@H](C)O)NC(=O)[C@H](CC(C)C)NC(=O)[C@@H]4CCCN4C(=O)[C@@H]4CCCN4C(=O)[C@H](CSSC[C@H](N)C(=O)N4CCC[C@H]4C(=O)NCC(=O)N[C@@H](CCC(=O)O)C(=O)NCC(=O)N[C@@H](CCC(=O)O)C(=O)N[C@@H](CCC(N)=O)C(=O)N3)NC2=O)C(=O)N[C@@H]([C@@H](C)CC)C(=O)N2CCC[C@H]2C(=O)NCC(=O)N[C@@H](CC(=O)O)C(=O)N2CCC[C@H]2C(=O)N[C@@H](Cc2ccc(O)cc2)C(=O)NCC(=O)N[C@@H]([C@@H](C)CC)C(=O)N1)[C@@H](C)CC)C(=O)O | HK-2 | MTT | up to 50 µM, 48 h |  | not toxic
O=c1c(Nc2ccccc2)c(NC2CCN(Cc3ccccc3)CC2)c1=O | SH-SY5Y | MTT | 6.25 µM, 24 h |  | 124.3 ± 0.49%
Cc1nc(-c2ccc(Cl)cc2)nc2sc3c(=O)n(CCN4CCOCC4)cnc3c12 | SH-SY5Y |  | 100 µM, 24 h |  | 93 ± 0.45%
Cc1ccc(CCNc2c(NC3CCN(Cc4ccccc4)CC3)c(=O)c2=O)cc1 | SH-SY5Y | MTT | 6.25 µM, 24 h |  | 107.8 ± 0.69%
COC(=O)C1=CO[C@@H](O)[C@@H]2C(Cn3cc(-c4ccc(OC)cc4)nn3)=CC[C@H]12 | SK-N-SH | MTT | 0.075 to 0.6 µM, 24 h, with: H2O2 |  | > 78%
O=C1CC(c2ccccc2)Oc2cc(O[C@@H]3O[C@H](CO)[C@@H](O)[C@H](O)[C@H]3O)ccc21 (stereo partly drawn) | Vero E6-GFP |  | highest tested, 72 h, with: CP-100356 2 µM | reference: untreated | 100%
COC(=O)C1=CO[C@@H](O)[C@@H]2C(Cn3cc(C4(O)CCCC4)nn3)=CC[C@H]12 | SK-N-SH | MTT | 0.075 to 0.6 µM, 24 h, with: H2O2 |  | > 78%
O=c1c(NCCc2ccc(O)cc2)c(NC2CCN(Cc3ccccc3)CC2)c1=O | SH-SY5Y | MTT | 6.25 µM, 24 h |  | 97.85 ± 0.46%

Some of these lines once more:
Structure (SMILES) | cell line | test | conditions | scale | viability
O=c1c(NCCc2ccccc2)c(NC2CCN(Cc3ccccc3)CC2)c1=O | SH-SY5Y | MTT | 6.25 µM, 24 h |  | 121 ± 1.55%
CC(C)C[C@H](NC(=O)[C@H](CCC(N)=O)NC(=O)CNC(=O)[C@H](Cc1c[nH]cn1)NC(=O)[C@H](CCC(N)=O)NC(=O)[C@H](CCCNC(=N)N)NC(=O)[C@H](CCCNC(=N)N)NC(=O)CNC(=O)CNC(=O)[C@H](CCCNC(=N)N)NC(=O)[C@H](CCCNC(=N)N)NC(=O)[C@H](CCCNC(=N)N)NC(=O)[C@H](CCC(N)=O)NC(=O)[C@H](CCCNC(=N)N)NC(=O)[C@H](CCCNC(=N)N)NC(=O)[C@H](CCCCN)NC(=O)[C@H](CCCCN)NC(=O)[C@H](CCCNC(=N)N)NC(=O)CN)C(=O)N[C@@H](Cc1c[nH]c2ccccc12)C(=O)N[C@@H](Cc1ccccc1)C(=O)N1CCC[C@H]1C(=O)N[C@@H](CCC(=O)O)C(=O)NCC(=O)N[C@@H](Cc1ccccc1)C(=O)O | human PBMC, normal | WST-8 | concentration not given, 24 h |  | no effect
